Measurements collected from several papers.
Parts stem from different laboratories: compare values within a part only.
Sequence of UniProt Q5XXA6 (whole entry, unmodified, looked up): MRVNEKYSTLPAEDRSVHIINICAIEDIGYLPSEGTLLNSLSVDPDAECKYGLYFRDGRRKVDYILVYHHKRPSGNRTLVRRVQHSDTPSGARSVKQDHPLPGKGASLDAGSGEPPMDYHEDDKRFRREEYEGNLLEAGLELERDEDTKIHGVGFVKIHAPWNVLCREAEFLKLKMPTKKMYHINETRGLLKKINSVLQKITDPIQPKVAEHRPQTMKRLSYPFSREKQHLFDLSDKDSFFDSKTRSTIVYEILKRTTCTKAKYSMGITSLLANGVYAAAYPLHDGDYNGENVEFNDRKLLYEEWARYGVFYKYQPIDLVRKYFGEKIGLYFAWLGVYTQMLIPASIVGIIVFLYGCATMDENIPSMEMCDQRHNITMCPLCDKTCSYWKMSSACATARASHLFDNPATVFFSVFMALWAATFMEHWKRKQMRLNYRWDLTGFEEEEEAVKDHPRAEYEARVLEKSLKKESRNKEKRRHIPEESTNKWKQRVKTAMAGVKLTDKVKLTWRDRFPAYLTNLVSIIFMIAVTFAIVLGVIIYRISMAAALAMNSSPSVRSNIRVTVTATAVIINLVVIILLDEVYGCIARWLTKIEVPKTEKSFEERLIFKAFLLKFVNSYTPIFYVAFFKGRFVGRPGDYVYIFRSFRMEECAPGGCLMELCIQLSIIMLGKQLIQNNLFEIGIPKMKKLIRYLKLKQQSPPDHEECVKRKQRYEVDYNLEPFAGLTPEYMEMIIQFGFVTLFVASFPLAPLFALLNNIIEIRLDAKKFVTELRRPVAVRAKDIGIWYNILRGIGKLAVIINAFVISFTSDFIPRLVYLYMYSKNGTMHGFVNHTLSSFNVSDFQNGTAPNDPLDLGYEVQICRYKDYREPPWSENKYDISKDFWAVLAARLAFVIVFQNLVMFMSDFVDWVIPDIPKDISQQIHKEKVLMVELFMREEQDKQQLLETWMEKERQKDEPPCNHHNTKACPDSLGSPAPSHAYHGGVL
Sequence of UniProt Q99755 (whole entry, looked up): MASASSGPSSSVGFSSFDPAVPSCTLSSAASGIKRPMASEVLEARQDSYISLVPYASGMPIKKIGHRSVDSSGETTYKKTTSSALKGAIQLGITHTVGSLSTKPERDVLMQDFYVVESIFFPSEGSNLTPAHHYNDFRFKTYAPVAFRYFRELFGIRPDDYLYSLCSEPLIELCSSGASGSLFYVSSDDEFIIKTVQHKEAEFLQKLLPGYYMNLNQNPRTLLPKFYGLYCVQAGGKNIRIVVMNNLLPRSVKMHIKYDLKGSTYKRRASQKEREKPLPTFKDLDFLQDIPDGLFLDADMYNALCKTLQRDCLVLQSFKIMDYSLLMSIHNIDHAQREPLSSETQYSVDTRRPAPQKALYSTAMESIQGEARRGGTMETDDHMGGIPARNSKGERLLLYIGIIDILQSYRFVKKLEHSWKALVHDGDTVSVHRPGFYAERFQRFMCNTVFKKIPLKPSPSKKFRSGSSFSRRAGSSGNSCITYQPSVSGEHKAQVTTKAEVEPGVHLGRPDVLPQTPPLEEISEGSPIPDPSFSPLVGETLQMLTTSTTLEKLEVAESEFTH
Sequence of UniProt P51955 (whole entry, looked up): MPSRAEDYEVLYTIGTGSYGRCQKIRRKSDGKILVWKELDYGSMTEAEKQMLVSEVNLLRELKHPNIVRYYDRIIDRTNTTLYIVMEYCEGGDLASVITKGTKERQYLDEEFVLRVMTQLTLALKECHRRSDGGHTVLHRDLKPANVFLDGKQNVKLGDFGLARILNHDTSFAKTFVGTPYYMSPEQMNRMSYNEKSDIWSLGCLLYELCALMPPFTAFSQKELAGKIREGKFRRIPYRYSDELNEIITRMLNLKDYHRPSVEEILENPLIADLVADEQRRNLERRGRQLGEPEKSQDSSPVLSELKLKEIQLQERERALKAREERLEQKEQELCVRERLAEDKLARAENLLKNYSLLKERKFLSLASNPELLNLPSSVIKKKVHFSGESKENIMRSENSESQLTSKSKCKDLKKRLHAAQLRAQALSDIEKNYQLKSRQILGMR
Sequence of UniProt O60331 (whole entry, looked up): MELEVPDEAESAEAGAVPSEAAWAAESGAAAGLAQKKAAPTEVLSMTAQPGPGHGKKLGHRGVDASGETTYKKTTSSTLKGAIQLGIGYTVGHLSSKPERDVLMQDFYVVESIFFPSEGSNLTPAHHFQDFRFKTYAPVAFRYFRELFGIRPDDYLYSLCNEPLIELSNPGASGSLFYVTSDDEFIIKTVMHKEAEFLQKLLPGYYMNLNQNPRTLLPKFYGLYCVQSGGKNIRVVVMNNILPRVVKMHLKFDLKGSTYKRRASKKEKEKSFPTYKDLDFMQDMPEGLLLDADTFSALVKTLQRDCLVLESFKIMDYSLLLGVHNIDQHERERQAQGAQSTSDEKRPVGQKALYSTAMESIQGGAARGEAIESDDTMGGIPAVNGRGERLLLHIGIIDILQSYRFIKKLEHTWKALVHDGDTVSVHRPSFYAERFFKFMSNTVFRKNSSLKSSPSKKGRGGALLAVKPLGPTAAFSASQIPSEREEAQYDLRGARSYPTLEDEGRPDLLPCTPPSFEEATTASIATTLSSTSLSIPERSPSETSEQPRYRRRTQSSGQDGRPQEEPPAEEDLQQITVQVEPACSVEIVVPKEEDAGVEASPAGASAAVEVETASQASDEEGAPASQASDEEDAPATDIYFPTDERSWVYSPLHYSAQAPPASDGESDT
Sequence of UniProt Q96GD4 (whole entry, looked up): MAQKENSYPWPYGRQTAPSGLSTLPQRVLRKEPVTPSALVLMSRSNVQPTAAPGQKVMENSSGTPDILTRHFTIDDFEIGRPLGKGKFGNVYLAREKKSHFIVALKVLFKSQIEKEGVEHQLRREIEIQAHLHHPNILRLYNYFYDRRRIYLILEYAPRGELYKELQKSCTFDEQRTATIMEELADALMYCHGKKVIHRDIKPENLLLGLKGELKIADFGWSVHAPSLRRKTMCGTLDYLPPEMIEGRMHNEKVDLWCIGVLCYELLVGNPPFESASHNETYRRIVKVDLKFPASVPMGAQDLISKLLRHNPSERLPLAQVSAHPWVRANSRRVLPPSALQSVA
Sequence of UniProt O15264 (whole entry, looked up): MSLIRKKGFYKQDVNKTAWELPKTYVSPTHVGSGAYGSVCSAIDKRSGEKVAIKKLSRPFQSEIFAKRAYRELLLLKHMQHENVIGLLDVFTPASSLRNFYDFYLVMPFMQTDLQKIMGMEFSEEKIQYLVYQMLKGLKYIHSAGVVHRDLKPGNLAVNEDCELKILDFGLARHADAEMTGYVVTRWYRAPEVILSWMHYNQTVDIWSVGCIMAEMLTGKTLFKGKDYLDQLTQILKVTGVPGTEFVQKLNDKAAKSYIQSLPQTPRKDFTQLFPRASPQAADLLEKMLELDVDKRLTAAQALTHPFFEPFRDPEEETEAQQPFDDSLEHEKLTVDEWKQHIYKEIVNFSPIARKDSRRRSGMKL
Sequence of UniProt P49760 (whole entry, looked up): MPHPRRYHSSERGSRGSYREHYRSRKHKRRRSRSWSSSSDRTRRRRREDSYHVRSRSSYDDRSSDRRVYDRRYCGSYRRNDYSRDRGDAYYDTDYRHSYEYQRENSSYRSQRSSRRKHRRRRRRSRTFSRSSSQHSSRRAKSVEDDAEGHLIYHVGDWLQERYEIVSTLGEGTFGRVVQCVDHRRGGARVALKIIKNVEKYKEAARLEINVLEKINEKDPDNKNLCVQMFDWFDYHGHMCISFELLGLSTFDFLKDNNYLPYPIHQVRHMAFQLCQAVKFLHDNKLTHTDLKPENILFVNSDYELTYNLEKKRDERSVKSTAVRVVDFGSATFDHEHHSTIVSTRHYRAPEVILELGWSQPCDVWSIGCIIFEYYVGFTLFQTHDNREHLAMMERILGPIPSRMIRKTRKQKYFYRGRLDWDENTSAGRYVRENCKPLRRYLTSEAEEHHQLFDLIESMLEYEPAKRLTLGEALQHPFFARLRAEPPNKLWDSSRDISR
Sequence of UniProt P20794 (whole entry, looked up): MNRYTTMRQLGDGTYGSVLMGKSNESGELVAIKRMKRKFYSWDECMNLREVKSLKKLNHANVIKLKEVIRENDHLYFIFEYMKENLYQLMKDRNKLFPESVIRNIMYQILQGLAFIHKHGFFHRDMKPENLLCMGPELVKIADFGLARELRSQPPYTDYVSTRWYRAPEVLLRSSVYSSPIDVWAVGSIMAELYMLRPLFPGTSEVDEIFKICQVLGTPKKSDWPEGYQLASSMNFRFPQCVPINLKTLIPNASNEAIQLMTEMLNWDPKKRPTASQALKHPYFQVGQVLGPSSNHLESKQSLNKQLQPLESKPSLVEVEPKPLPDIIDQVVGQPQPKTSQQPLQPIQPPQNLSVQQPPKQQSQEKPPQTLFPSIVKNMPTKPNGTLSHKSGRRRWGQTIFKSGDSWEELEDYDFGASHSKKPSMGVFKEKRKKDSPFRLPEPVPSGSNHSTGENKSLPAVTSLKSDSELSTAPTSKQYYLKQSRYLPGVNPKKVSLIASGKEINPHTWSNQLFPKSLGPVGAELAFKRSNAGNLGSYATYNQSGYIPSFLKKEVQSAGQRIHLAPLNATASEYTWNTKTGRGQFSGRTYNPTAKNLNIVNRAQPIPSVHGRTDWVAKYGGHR
Sequence of UniProt Q00535 (whole entry, looked up): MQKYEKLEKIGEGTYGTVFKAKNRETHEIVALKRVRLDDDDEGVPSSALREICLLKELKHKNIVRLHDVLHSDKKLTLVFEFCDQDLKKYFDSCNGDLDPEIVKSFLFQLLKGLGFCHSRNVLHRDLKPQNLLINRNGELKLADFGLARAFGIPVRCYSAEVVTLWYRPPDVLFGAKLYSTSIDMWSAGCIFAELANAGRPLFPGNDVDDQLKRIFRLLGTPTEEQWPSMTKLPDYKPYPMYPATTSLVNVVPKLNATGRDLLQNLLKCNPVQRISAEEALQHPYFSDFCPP

Sample 1 — host: mouse; medium: microsomes or S9; tested at: 2 µM; time: 0.5 h; quantity: remaining compound
COCCOc1cc(=O)n2c(c1C(=O)NC1CCCCCC1)CCOCC2: 68.9%
CCOc1cc(=O)n2c(c1C(=O)NCc1ccc(F)cc1Cl)CCCC2: 24.3%
CC(/C=C1\S/C(=N/c2ccc(O)cc2)N=C1O)=C\c1ccccc1: 70.4%
CN(n1cnc2ccsc2c1=O)S(C)(=O)=O: 95%

Sample 2 — organism: Sarcocystis neurona; effect on: parasite activity; tested at: 10 µM; time: 96 h; quantity: activity class
COc1ccc(OC)c(C(O)CNC(=O)CN)c1 (stereo not shown): inactive
O=C(O[C@H]1[C@H](Oc2ccccc2COC(=O)C2(O)C=CCCC2=O)O[C@H](CO)[C@@H](O)[C@@H]1O)c1ccccc1 (stereo partly shown): inactive
CCCCN1CCCC1CNC(=O)c1cc(C#N)c2ccccc2c1OC (stereo not shown): inactive
CN(C)CCc1c[nH]c2ccc(C[C@H]3COC(=O)N3)cc12: inactive
CN(C)[C@@H]1C(O)=C(C(N)=O)C(=O)[C@@]2(O)C(O)=C3C(=O)c4c(O)cccc4[C@@](C)(O)[C@H]3[C@H](O)[C@@H]12: inactive

Sample 3 — Structure (SMILES): C=CCc1ccc(O)c(-c2ccc(O)c(CC=C)c2)c1; effect on: chloride current; technique: whole-cell voltage clamp; quantity: IC50
Anoctamin-1 (ANO1, Homo sapiens, UniProt Q5XXA6, del476-501/F628I); inhibitor; mutant F602I at 100 mV, with: 300 nM Ca2+: 9.86 µM
Anoctamin-1 (ANO1, Homo sapiens, UniProt Q5XXA6, del476-501); inhibitor; -20 mV voltage, with: 300 nM Ca2+: 2.88 µM
Anoctamin-1 (ANO1, Homo sapiens, UniProt Q5XXA6, del476-501/F803A); membrane voltage -20 mV: 12 µM

Sample 4 — effect on: cell-free assay; technique: competition with immobilised ligand; tested at: 1 µM; quantity: remaining binding
Structure (SMILES): CO[C@@H](C)c1c(Nc2ccc([C@H](N(C)C(=O)C3CCS(=O)(=O)CC3)C(F)(F)F)cc2)cnc2cc(Cl)nn12
Mitogen-activated protein kinase kinase kinase 3 (MAP3K3, Homo sapiens, UniProt Q99759): 73%
Protein kinase C theta type (PRKCQ, Homo sapiens, UniProt Q04759): 93%
Dual specificity protein kinase CLK2 (CLK2, Homo sapiens, UniProt P49760): 100%
Mitogen-activated protein kinase 13 (MAPK13, Homo sapiens, UniProt O15264): 100%
Homeodomain-interacting protein kinase 3 (HIPK3, Homo sapiens, UniProt Q9H422): 100%
Serine/threonine-protein kinase MAK (MAK, Homo sapiens, UniProt P20794): 100%
Serine/threonine-protein kinase LATS1 (LATS1, Homo sapiens, UniProt O95835): 88%
Serine/threonine-protein kinase 38 (STK38, Homo sapiens, UniProt Q15208): 83%
Serine/threonine-protein kinase/endoribonuclease IRE1 (ERN1, Homo sapiens, UniProt O75460): 91%
Cyclin-dependent kinase 15 (CDK15, Homo sapiens, UniProt Q96Q40): 74%
Cyclin-dependent kinase 5 (CDK5, Homo sapiens, UniProt Q00535): 96%
Macrophage colony-stimulating factor 1 receptor, autoinhibited (CSF1R, Homo sapiens, UniProt P07333): 95%
Serine/threonine-protein kinase Nek2 (NEK2, Homo sapiens, UniProt P51955): 100%
Rho-associated protein kinase 1 (ROCK1, Homo sapiens, UniProt Q13464): 100%
Phosphatidylinositol 4-phosphate 5-kinase type-1 gamma (PIP5K1C, Homo sapiens, UniProt O60331): 100%
Aurora kinase B (AURKB, Homo sapiens, UniProt Q96GD4): 91%
Phosphatidylinositol 4-phosphate 5-kinase type-1 alpha (PIP5K1A, Homo sapiens, UniProt Q99755): 100%

Further values, each from its own experiment
CCNC1(C(N)=O)CCN(c2ncnc3c2nc(-c2ccccc2Cl)n3-c2ccc(Cl)cc2)CC1 — nuclei count (mouse MPNST tumor cells; high-content nuclear imaging, item: cell number; 10 µM, 12 h, mean of 2 replicates; reference: plate mean, higher = more cells): 1.57 z-score
CC(C)S(=O)(=O)c1cc2c(Nc3ccc4sc(C5CCCC5)nc4c3)ccnc2cc1OCCO — EC50 (HT-29; necroptosis; with: TNF-α): 0.159 µM
O=C1NC(=O)c2c1c(-c1ccccc1)cc1[nH]c3ccc(O)cc3c21 — nuclei count (mouse MPNST tumor cells; high-content nuclear imaging, item: cell number; 10 µM, 12 h, mean of 2 replicates; reference: plate mean, higher = more cells): -2.45 z-score
CC(C)n1cnc(-c2ccc(F)cc2)c1-c1ncc(C(=O)Nc2ccc(N3CCN(C)CC3)cc2)[nH]1 — patients with weight decreased TEAE (phase 2a clinical trial; patients with idiopathic pulmonary fibrosis; 60 mg once daily): 0%
COc1ccccc1OCCNCC(O)COc1cccc2[nH]c3ccccc3c12 (stereo not shown) — nuclei count (mouse MPNST tumor cells; high-content nuclear imaging, item: cell number; 10 µM, 12 h, mean of 2 replicates; reference: plate mean, higher = more cells): -2.88 z-score

Excerpt of the above (sample 2):
CN(C)CCc1c[nH]c2ccc(C[C@H]3COC(=O)N3)cc12: inactive
CCCCN1CCCC1CNC(=O)c1cc(C#N)c2ccccc2c1OC (stereo not shown): inactive
